Assay results pooled from the literature.
Each numbered part is a random draw from the data of one study; scales do not carry over between parts. Positions count from the first letter of the parent shown.

Block 1
Target: ABI1, truncated, D143A, DHFR fusion (Arabidopsis thaliana)
Technique: DHFR PCA, deep sequencing
Medium: yeast
Notes: methotrexate growth selection, single substitutions
Together with: (+)-ABA 0 µM
Relative to: wild-type fitted maximum
Direction: higher = stronger binding
Parent: PYL1, truncated, DHFR fusion (Arabidopsis thaliana); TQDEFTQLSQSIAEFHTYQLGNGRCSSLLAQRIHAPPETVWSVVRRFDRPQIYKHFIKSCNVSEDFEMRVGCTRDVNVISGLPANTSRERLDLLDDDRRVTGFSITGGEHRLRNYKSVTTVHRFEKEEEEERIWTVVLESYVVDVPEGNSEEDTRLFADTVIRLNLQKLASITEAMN; partner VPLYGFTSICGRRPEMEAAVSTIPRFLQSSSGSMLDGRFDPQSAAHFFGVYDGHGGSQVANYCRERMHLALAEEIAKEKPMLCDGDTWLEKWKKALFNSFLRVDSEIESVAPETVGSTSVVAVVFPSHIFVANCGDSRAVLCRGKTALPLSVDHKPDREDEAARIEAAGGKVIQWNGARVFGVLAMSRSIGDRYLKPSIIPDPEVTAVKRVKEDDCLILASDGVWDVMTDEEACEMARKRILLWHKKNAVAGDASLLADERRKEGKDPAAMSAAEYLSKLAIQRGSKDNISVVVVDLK
Substitution | relative binding score
K54T | -4.64%
H16P | 2.85%
G102L | -2.96%
I133S | 28.6%
T39W | -1.5%
P146L | 26%
L166Y | 10.8%
E127S | 31.6%
D153N | -7.4%
L94K | -6.1%
L94W | 2.82%
E64M | 7.22%
E127Q | 39.5%
L8S | -2.85%
E109P | -0.0658%

Block 2
Target: Ras GTPase-activating protein-binding protein 1, RRM domain (G3BP1, Homo sapiens, UniProt Q13283)
Chain of UniProt Q13283 (whole entry, looked up): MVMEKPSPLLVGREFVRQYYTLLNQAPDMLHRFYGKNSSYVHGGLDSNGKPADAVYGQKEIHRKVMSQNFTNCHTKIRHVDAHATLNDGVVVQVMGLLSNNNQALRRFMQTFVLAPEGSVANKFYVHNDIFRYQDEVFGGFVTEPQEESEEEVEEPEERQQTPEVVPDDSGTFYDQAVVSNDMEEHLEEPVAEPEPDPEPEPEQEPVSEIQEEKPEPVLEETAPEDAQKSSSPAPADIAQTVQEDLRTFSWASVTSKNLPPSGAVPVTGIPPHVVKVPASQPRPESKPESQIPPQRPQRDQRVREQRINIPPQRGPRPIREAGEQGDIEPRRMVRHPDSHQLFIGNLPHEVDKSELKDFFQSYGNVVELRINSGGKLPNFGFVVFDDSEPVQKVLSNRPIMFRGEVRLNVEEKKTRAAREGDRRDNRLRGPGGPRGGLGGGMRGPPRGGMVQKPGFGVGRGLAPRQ
Technique: RNA Bind-n-Seq
Molecule type: RNA
Medium: in vitro
Tested at: 1 µM
Notes: whole 134-nt RNA, ends assumed
Together with: 150 mM KCl
Relative to: input library
Direction: higher = stronger binding
Shared flanks, not repeated: GGGAGUUCUACAGUCCGACGAUC … UGGAAUUCUCGGGUGUCAAGG
Strand | log2 enrichment
CCUCAAGUCCUGUGCUACACAUCGUAUGUACCGAAUCGGGUGGGUGGGUGGGAAAGUAUUAUGUUACGCCGUUCGGAUCUGCACUUCCAG | 0.641
GUCCUGUGCUACACAUCGUAUGUACCGAAUCGGGGUUUUUGGGGAAAGGGGUUUGGGGAAAGUAUUAUGUUACGCCGUUCGGAUCUGCAC | 1.4
UAUCCCCUAUGAGGCACCACGUAAGACCUCCUGCCCUUAGCUCUCUUGCUCACCACCCAAGAACCUCAGGACAGAAGCGAGAGCCCAUUG | -0.156
UCCCCCCUAUUGGAAGUAAAGGGGAACAUAGAACUGAAGAGACCUCUGAUUAAGGCCCCUUCCCAGCUGCCUCUCUCAGGAAGCAGACUC | -0.359
UCCUGUGCUACACAUCGUAUGUACCGAAUCGGGGAAAAAAGGAAAAAAGGGAAAAAAGGAAAGUAUUAUGUUACGCCGUUCGGAUCUGCA | 0.0274
AAGUCCUGUGCUACACAUCGUAUGUACCGAAUCGGGUUUUUGGGUGGGAAAAAGGGAAAGUAUUAUGUUACGCCGUUCGGAUCUGCACUU | 0.502
CUGUGCUACACAUCGUAUGUACCGAAUCGGGGAAAAAAAGGAAAAAAAGGGAAAAAAAGGGAAAGUAUUAUGUUACGCCGUUCGGAUCUG | 0.14
UCAAGUCCUGUGCUACACAUCGUAUGUACCGAAUCGGGUUGGGUUGGGGUUGGGAAAGUAUUAUGUUACGCCGUUCGGAUCUGCACUUCC | 0.784

Block 3
Target: Phosphate system positive regulatory protein PHO4, full length, GST-tagged (PHO4, Saccharomyces cerevisiae, UniProt P07270, residues 1-312)
Technique: competition protein-binding microarray
Molecule type: double-stranded DNA, one strand shown
Medium: in vitro
Tested at: 2 µM
Notes: whole 60-bp probe, lowest competitor level
Together with: Cbf1 competitor, 0.05 µM
Direction: higher = stronger binding
Shared flanks, not repeated: … GTCTTGATTCGCTTGACGCTGCTG
Construct (chain): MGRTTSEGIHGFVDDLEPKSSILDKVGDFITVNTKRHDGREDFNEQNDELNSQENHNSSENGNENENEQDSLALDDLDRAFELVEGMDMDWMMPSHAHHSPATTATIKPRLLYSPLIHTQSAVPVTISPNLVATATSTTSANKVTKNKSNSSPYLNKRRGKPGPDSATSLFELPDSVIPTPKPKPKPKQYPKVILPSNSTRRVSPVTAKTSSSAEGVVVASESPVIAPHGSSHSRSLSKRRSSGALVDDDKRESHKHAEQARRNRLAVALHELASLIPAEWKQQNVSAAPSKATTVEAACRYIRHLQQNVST
Strand | fluorescence intensity [a.u.]
ATGAGCTACATTCACCACGTGTCGGAGACTGGGAAA | 16000
CTAACGAAGGTTTGGTCAGTGGGTGACAAGCCAAGT | 4170
AAAGCGGTAATTTGTAGGGTGGGTGCAGATATCTAT | 4650
GCCCTGGACGGAAAGCACGTGCTAAAGTGTTGCCCG | 15200
TGCGCAACAACTTGTCACTTGACTTTATGTCTAGAA | 3400
AAAGCGGTAATTTGACACGTGTTTTCACATATCTAT | 18700
AGAAGTTTACCAAAACACGTGCAAAGATCCTACGAT | 16000
GTCTTGTCTCATTGTCGAGTGGGTGTCCCCACTTCA | 6080
TGGCCTAAGATGAAGGTCGTGCTTTTTGTTCAATTG | 7680
AAATTACTAAGTTGCGGAGTGGGTGACGCCGTATGA | 3950
GGAAACAGCTACCCCGGCGTGCCGAGTGGCTCTCTG | 6700
CGGTCATCGGGCGCGCTCGTGGACGATGACAAGCGC | 7280

Block 4
Target: Histone acetyltransferase KAT6A, winged helix 1, GST fusion (KAT6A, Homo sapiens, UniProt Q92794, residues 1-85)
Technique: protein binding microarray
Molecule type: double-stranded DNA, one strand shown
Medium: in vitro
Tested at: not given
Notes: 8-mer, flanks averaged, mean of 2 arrays, mostly near background
Relative to: not given
Direction: higher = stronger binding
Construct (chain): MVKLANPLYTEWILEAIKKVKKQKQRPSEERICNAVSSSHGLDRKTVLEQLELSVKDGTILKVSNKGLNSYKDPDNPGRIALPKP
Strand | E-score
CCGGCGGA | 0.466
TCCACAAA | -0.249
ACAGCGGG | 0.175
TCCGTTCA | 0.0311
GCGCTGAA | 0.237
ATGGAGGA | -0.0965
AATCTCTC | -0.0722
CAGACTCG | -0.107
ACATGCAC | -0.0855
AGGGTATG | -0.323
CGAGTTCA | -0.138
ATATGACC | 0.0369
CCGCGCGA | 0.402
CTATATGA | -0.0598
CTGTTAGA | -0.114
GCGGGAAC | 0.414
ATGTAAGA | -0.0861
CATCCGAA | -0.0221
CGTTATTA | 0.241
CTTAATTC | -0.094
AAACAGTT | 0.0548
ACGTACTC | 0.101

Block 5
Target: Interferon regulatory factor 7, full length, phosphomimetic (IRF7, Homo sapiens, UniProt Q92985, residues 1-503, S101K/S471D/S472D/S475D/S476D/S477D/S483D/S484D/S487D)
Chain of UniProt Q92985 (whole entry, unmodified, looked up): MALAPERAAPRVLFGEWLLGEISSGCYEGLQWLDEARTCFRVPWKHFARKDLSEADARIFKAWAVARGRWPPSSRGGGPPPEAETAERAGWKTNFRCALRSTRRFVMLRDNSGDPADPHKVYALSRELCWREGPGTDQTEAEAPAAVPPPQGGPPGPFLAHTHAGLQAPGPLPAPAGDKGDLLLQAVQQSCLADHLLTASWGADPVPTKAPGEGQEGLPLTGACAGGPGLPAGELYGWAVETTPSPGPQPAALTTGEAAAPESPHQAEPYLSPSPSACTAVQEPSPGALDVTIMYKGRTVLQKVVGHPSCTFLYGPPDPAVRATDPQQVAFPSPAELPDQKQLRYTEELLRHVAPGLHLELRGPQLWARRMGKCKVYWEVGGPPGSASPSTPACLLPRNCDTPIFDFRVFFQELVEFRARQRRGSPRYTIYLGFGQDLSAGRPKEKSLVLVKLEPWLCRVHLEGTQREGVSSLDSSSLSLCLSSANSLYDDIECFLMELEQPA
Technique: protein-binding microarray
Molecule type: double-stranded DNA, one strand shown
Medium: in vitro
Tested at: 250 nM
Notes: 60-bp whole probe
Together with: salmon DNA 0.4 mg/ml
Relative to: random background probes
Direction: higher = stronger binding
Shared flanks, not repeated: GCCTAGCAC … GTCTTGATTCGCTTGACGCTGCTG
Strand | log fluorescence
GACGGACTGGGACTGGAGACGTGCTAG | -0.47 z-score
GACGGACTGGACTATCAGGACGTGCTA | -0.721 z-score
TTAGGACTGCACACTGGGTTAGTGCTA | -0.388 z-score
GCCGGACTGGGGTATCGGGACGTGCTA | -0.674 z-score
TGAGAACTGGGGTATCGATTAGTGCTA | -0.2 z-score
TTAGGACTGGACACTAGGTTAGTGCTA | -0.658 z-score
TCACATTGCCTATTTTTCACTGTGCTA | 0.849 z-score
TCATCTCCGGGGTCTGTGACTGTGCTA | -0.221 z-score
TTAGGTATCGACACTGGCTTAGTGCTA | -0.401 z-score
TCAGATATCGGGTTTCGATTAGTGCTA | 6.82 z-score
TCTGTTTTTGCTTTCTTTTTGTGCTAG | 2.5 z-score
TCAGAACTGTTTCTTGAACTGTGCTAG | 0.441 z-score
GACGGTCTCGGTTTCGGGATGTGCTAG | 8.42 z-score

Block 6
Target: BIRC6 UBC core domain (UniProt Q9NR09)
Technique: yeast two-hybrid
Medium: yeast
Notes: mostly zero background
Relative to: not given
Direction: higher = stronger interaction
B1: RLIM RING domain (UniProt Q9NVW2); chain SFGENDALKTCSVCITEYTEGNKLRKLPCSHEYHVHCIDRWLSENSTCPICRRAVLASGNRE
B2: MEX3B RING domain (UniProt Q6ZN04); chain SGLRRKGSRDCSVCFESEVIAALVPCGHNLFCMECANRICEKSEPECPVCHTAVTQAIRIF
B3: RNF31 RING domain (UniProt Q96EP0); chain AFLRRLLAQECAVCGWALPHNRMQALTSCECTICPDCFRQHFTIALKEKHITDMVCPACGRPDLTDDTQLL
B4: TRIM26 RING domain (UniProt Q12899); chain PLRSLEEEVTCSICLDYLRDPVTIDCGHVFCRSCTTDVRPISGSRPVCPLCKKPFKKENIRP
B5: TRIM22 RING domain (UniProt Q8IYM9); chain VKVDIEKEVTCPICLELLTEPLSLDCGHSFCQACITAKIKESVIISRGESSCPVCQTRFQPGNLRP
B6: ANAPC11 RING domain (UniProt Q9NYG5); chain GICRMAFNGCCPDCKVPGDDCPLVWGQCSHCFHMHCILKWLHAQQVQQHCPMCRQEWKFKE
Construct (chain): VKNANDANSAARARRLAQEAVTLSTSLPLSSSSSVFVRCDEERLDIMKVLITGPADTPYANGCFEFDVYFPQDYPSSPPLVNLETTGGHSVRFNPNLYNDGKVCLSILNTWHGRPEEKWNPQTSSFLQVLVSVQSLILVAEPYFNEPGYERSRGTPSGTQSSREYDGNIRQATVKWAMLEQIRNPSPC
Sequence | lacZ reporter activity
LGTKLEAKYLCSACRNVLRRPFQAQCGHRYCSFCLASILSSGPQNCAACVHEGIYEEGIS (TRAF2 RING domain (UniProt Q12933)) | 0
B1 (RLIM RING domain) | 0
PEELAVNNDDCAICWDSMQAARKLPCGHLFHNSCLRSWLEQDTSCPTCRMSLNIADNNR (AMFR RING domain (UniProt Q9UKV5)) | 0
B2 (MEX3B RING domain) | 0
MNDVLENELQCIICSEYFIEAVTLNCAHSFCSYCINEWMKRKIECPICRKDIKSKTYSL (RNF8 RING domain (UniProt O76064)) | 0
B3 (RNF31 RING domain) | 0
B4 (TRIM26 RING domain) | 0
B5 (TRIM22 RING domain) | 0
B6 (ANAPC11 RING domain) | 0
FVKTVEDKYKCEKCHLVLCSPKQTECGHRFCESCMAALLSSSSPKCTACQESIVKDKVF (TRAF3 RING domain (UniProt Q13114)) | 0

Excerpt of the above (block 5):
Strand | log fluorescence
TTAGGTATCGACACTGGCTTAGTGCTA | -0.401 z-score
TGAGAACTGGGGTATCGATTAGTGCTA | -0.2 z-score
GACGGTCTCGGTTTCGGGATGTGCTAG | 8.42 z-score
GCCGGACTGGGGTATCGGGACGTGCTA | -0.674 z-score
TCACATTGCCTATTTTTCACTGTGCTA | 0.849 z-score
TCTGTTTTTGCTTTCTTTTTGTGCTAG | 2.5 z-score
GACGGACTGGACTATCAGGACGTGCTA | -0.721 z-score
TTAGGACTGCACACTGGGTTAGTGCTA | -0.388 z-score
TCATCTCCGGGGTCTGTGACTGTGCTA | -0.221 z-score
GACGGACTGGGACTGGAGACGTGCTAG | -0.47 z-score
TTAGGACTGGACACTAGGTTAGTGCTA | -0.658 z-score
